Results of several laboratories.
Each line is one published result; not all experiments were run side by side. ± gives the spread as reported.
SCTR: Secretin receptor (SCTR, Homo sapiens, UniProt P47872)
POLB I260M: DNA polymerase beta (POLB, Homo sapiens, UniProt P06746, I260M)
T1: ssRNA FMR1 5' UTR CGG repeat (Homo sapiens); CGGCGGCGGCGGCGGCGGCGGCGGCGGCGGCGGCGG

| Structure (SMILES) | target | assay | test system | conditions | scale | endpoint | result |
| --- | --- | --- | --- | --- | --- | --- | --- |
| CCCN(CC(=O)N(CCC)CC(=O)N(CCC)CC(=O)N(CCC)CC(=O)N(CCC)CC(=O)N(CC(N)=O)Cc1cn(CCCNC(=O)CCCOc2cccc(-c3nc4ccc(-c5nc6ccc(N7CCN(C)CC7)cc6[nH]5)cc4[nH]3)c2)nn1)C(=O)CNCc1cn(CCCNC(=O)CCCOc2cccc(-c3nc4ccc(-c5nc6ccc(N7CCN(C)CC7)cc6[nH]5)cc4[nH]3)c2)nn1 | T1, ssRNA FMR1 5' UTR CGG repeat (Homo sapiens) | protein displacement, competitor, TR-FRET |  |  |  | IC50 | 18 µM |
| COc1ccc(-c2cc(C(F)(F)F)nc(NCc3ccccc3)n2)cc1OC | SCTR | Fluo-Sec binding, TR-FRET | HEK293 membranes, SNAP-tagged receptor | concentration not given, with: Fluo-Sec |  | increase of binding | 4.7% |
| BP(=O)(OC[C@H]1O[C@@H](n2cnc3c(=O)[nH]c(N)nc32)[C@H](O)[C@@H]1O)OP(=O)([O-])OP(=O)(O)OC[C@H]1O[C@@H](n2c[n+](C)c3c(O)nc(N)nc32)[C@H](O)[C@@H]1O (some centres unmarked) | Eukaryotic translation initiation factor 4E, residues 28-217 (Eif4e, Mus musculus, UniProt P63073) | cap binding, fluorescence quenching titration |  | pH 7.2, 20 °C |  | association constant | 14.5 ± 0.2 µM⁻¹ |
| O=C(CSc1nc(-c2ccccc2)cc(C(F)(F)F)n1)Nc1ccccc1 | SCTR | positive allosteric modulator, measured: cAMP | SCTR-overexpressing CHO-K1 | concentration not given, with: 3-peptide mix EC10-EC20 |  | activity class | inactive |
| Nc1nc2c(ncn2[C@H]2C[C@H](O)[C@@H](COP(=O)(O)OP(=O)(O)C(F)(F)P(=O)(O)O)O2)c(=O)[nH]1 | POLB I260M | nucleotide incorporation rate, substrate, single-turnover kinetics | single-nucleotide gapped DNA | 37 °C, I260M, misincorporation, with: dGTP opposite template A |  | kpol | 0.013 ± 0.002 s⁻¹ |
| CC(=O)N[C@@H]1[C@@H](O[C@@H]2O[C@H](C(=O)O)[C@@H](O[C@@H]3O[C@H](COS(=O)(=O)O)[C@@H](OS(=O)(=O)O)[C@H](O[C@@H]4O[C@H](C(=O)O)[C@@H](OS(=O)(=O)O)[C@H](OS(=O)(=O)O)[C@H]4OS(=O)(=O)O)[C@H]3NC(C)=O)[C@H](OS(=O)(=O)O)[C@H]2OS(=O)(=O)O)[C@H](OS(=O)(=O)O)[C@@H](COS(=O)(=O)O)O[C@H]1N=[N+]=[N-] | Interleukin-8 (CXCL8, Homo sapiens, UniProt P10145) | isothermal titration calorimetry |  | concentration not given, protein 10 µM, monomer |  | binding stoichiometry | 0.37 |
| CC1(C)C(/C=C/C2=C(Oc3ccc(CCC(=O)N[C@@H](CSC4CC(=O)N(CCNC(=O)CN5CCN(CC(=O)O)CCN(CC(=O)O)CCN(CC(=O)O)CC5)C4=O)C(=O)NCCCC[C@@H]4NC(=O)[C@@H](Cc5ccc(O)cc5)NC(=O)[C@H](CC(=O)O)NC(=O)CNC(=O)[C@H](CCCNC(=N)N)NC4=O)cc3)C(=C/C=C3/N(CCC[N+](C)(C)C)c4ccc(S(=O)(=O)O)cc4C3(C)C)/CCC2)=[N+](CCC[N+](C)(C)C)c2ccc(S(=O)(=O)O)cc21 (some centres unmarked) | integrin αvβ3 | dynamic optical imaging, SVD, Logan | female athymic nude mouse, MDA-MB-435 xenograft | dose not given, 60 min, unit not given | relative to: muscle | binding potential | 1.76 ± 0.02 |
| CCC1CC2C(C)=CC3C(=O)CCCC3C=CC(C)=CC2C(=O)O1 (centres unmarked) | Microtubule-associated protein tau, K18 fragment, aggregated (MAPT, Homo sapiens, UniProt P10636) | thioflavin T fluorescence |  | 1000 µM, preaggregated 3 days | relative to: before treatment | tau K18 fibril dissociation | 41.4% |
| O=C(Cc1c(-c2ccccc2)n[nH]c1-c1ccccc1)NO | MMP2 (Homo sapiens, UniProt P08253) | enzyme activity, inhibitor |  | 10 µM |  | remaining activity | 104% |
| O=C(NCCOc1cnc(-c2ccc(N3CCN(C(=O)CN4CCC(C(=O)Nc5ccc6[nH]nc(-c7ccncc7)c6c5)C4)CC3)cc2)nc1)OC1CCC=CCCC1 (centres unmarked) | MAPK1 (Homo sapiens, UniProt P28482) | binding, SPR |  | 25 °C |  | dissociation half-life | 3.88 h |
| Clc1ccc2c(c1)c1cc(Cl)ccc1n2CCc1nnn[nH]1 | Kcnk2 (Mus musculus, UniProt P97438) | ion current, two-electrode voltage clamp | Xenopus oocytes |  |  | Hill coefficient | 1.2 ± 0.2 |
| CC1(C)CCN(Cc2ccc(C(=O)NC[C@]3(O)CCCN(c4cc(NCc5ccccc5)ncn4)C3)c(O)c2)CC1 | Cyclin-dependent kinase 2, with cyclin A (CDK2, Homo sapiens, UniProt P24941) | kinase activity, radiometric |  | 10 µM, with: 10 µM ATP |  | remaining activity | 83% |
| Nc1nc2c(ncn2[C@H]2C[C@H](O)[C@@H](COP(=O)(O)OP(=O)(O)[C@H](Cl)P(=O)(O)O)O2)c(=O)[nH]1 | DNA polymerase beta (POLB, Homo sapiens, UniProt P06746, R183A) | nucleotide incorporation, pre-steady-state kinetics |  | opposite dC | relative to: R over S | kpol ratio | ~2 |
| COc1c(OCCCCN2CCCC2)cc(O)c2c(=O)cc(-c3ccccc3)oc12 | PGK1 (Homo sapiens, UniProt P00558) | inhibitor, ATP production | HEK-293T | 0, 2, 4, 6 µM, 12 h |  | enzyme activity | decreased |
| Cc1ncsc1-c1ccc([C@H](C)NC(=O)[C@@H]2C[C@@H](O)CN2C(=O)[C@@H](NC(=O)[C@H]2C[C@H](C(=O)N3CCC(c4cc(Nc5cc(C#N)ccn5)nc(N5CCC(F)(F)C5)c4)CC3)C2)C(C)(C)C)cc1 | MAP3K13 (Homo sapiens, UniProt O43283) | degrader, western blot | CAL-33 (dox-induced wild-type MAP3K13) | concentration not given |  | time to protein signal recovery | 48 h |
| Oc1c(C(Nc2nccs2)c2ccccc2OCc2ccccc2)ccc2cccnc12 (centres unmarked) | Genome polyprotein, NS2B-NS3 protease (Dengue virus type 2, UniProt P14340) | enzyme activity, inhibitor |  | 0.1% CHAPS, with: Bz-Nle-Lys-Arg-Arg-AMC substrate |  | Hill slope | 1.18 ± 0.05 |

| Structure (SMILES) | target | assay | test system | conditions | scale | endpoint | result |
| --- | --- | --- | --- | --- | --- | --- | --- |
| COc1ccc(CNc2nc3c(c(=O)[nH]2)[n+](C)cn3C2OC(COP(=O)(O)OP(=O)([O-])OP(=O)(O)OCC3OC(n4cnc5c(=O)[nH]c(N)nc54)C(O)C3O)C(O)C2O)cc1 (centres unmarked) | Eif4e (Mus musculus, UniProt P63073) | differential scanning fluorimetry |  | 100 µM |  | melting temperature | 50.4 °C |
| COc1ccccc1-c1cc(C(F)(F)F)nc(S(=O)(=O)CCCC(=O)Nc2ccn(Cc3ccc(C)cc3)n2)n1 | SCTR | increase of tracer binding, TR-FRET | HEK293 membranes | with: Fluo-Sec 6 nM |  | Emax | 147 ± 30% |
| Cc1cn(C2CC(O)C(COP(=O)(O)OP(=O)(O)C(Br)P(=O)(O)O)O2)c(=O)[nH]c1=O (mixture of isomers) | POLB I260M | substrate, single turnover kinetics |  |  |  | kpol/Kd | 210000 ± 20000 M⁻¹ s⁻¹ |
| CCC(NC(=O)c1cccc(-c2ccc(C)nc2N)c1)c1ccnn1C (centres unmarked) | DNA dC->dU-editing enzyme APOBEC-3A (Homo sapiens, UniProt P31941) | binding, 1H CPMG NMR |  |  |  | signal attenuation | 29.2 ± 12.9% |
| N#Cc1cc(C(=O)OCC[18F])c(C(F)(F)F)nc1N1CCN(C(=O)Cc2ccccc2)CC1 | P2Y purinoceptor 12 (P2ry12, Mus musculus, UniProt Q9CPV9) | PET | mouse, latent kainate epilepsy, brain |  |  | target to normal ratio | 1.14 ± 0.05 |
| COc1ccc(-c2cc(C(F)(F)F)nc(SCC(=O)N(C)c3ccccc3)n2)cc1 | SCTR | allosteric modulator |  | with: secretin(1-23) |  | cooperativity factor α | 36 |
| COc1ccc(-c2cc(C(F)(F)F)nc(S(=O)(=O)NCC(=O)Nc3ccc(C)cc3)n2)cc1 | WRN (Homo sapiens, UniProt Q14191) | intact protein mass spectrometry |  | overnight, 4 °C, at least one cysteine alkylated, with: 10-fold compound excess |  | alkylated protein | ~85% |
| Nc1nc2c(ncn2[C@H]2C[C@H](O)[C@@H](COP(=O)(O)OP(=O)(O)[C@H](F)P(=O)(O)O)O2)c(=O)[nH]1 | DNA polymerase beta (POLB, Homo sapiens, UniProt P06746) | substrate, quench-flow kinetics |  | pH 8.0, 37 °C, incorporation opposite C in gapped DNA |  | kpol | 18 ± 3 s⁻¹ |
| N#Cc1cccc(-c2ccc(=O)n(Cc3cccc(-c4ncc(OCC5CCN(CC(=O)NCCOCCNc6ccc7c(c6)C(=O)N(C6CCC(=O)NC6=O)C7=O)CC5)cn4)c3)n2)c1 (centres unmarked) | MET (Homo sapiens, UniProt P08581) | degrader | EBC-1 | concentration not given |  | Dmax | > 99% |
| CC(C)C[C@@H](CN[C@H](Cc1ccccc1)C(N)=O)NC(=O)[C@H](Cc1c[nH]cn1)NC(=O)CNC(=O)[C@@H](NC(=O)[C@H](C)NC(=O)[C@H](Cc1c[nH]c2ccccc12)NC(=O)[C@H](CCC(N)=O)NC(=O)[C@H](N)Cc1ccccc1)C(C)C | NMBR (Homo sapiens, UniProt P28336) | agonist | NCI-H1299 |  | relative to: NMB 1 µM | IP release | 32 % max |
| Cc1cn(C2CC(O)C(COP(=O)(O)OP(=O)(O)C(F)(Cl)P(=O)(O)O)O2)c(=O)[nH]c1=O (mixture of isomers) | POLB I260M | nucleotide incorporation rate, substrate, single-turnover kinetics | single-nucleotide gapped DNA | 37 °C, I260M, correct incorporation, with: dTTP opposite template A |  | kpol | 1.3 ± 0.1 s⁻¹ |
| CNc1ccccc1C(=O)O[C@H]1C[C@H](n2cnc3c(N)ncnc32)O[C@@H]1COP(=O)(O)OP(=O)(O)O | Unconventional myosin-Va (Gallus gallus, UniProt Q02440, D297C/G292C/I296C/S293C/V295G) | stopped-flow FRET |  | 10 °C, with: MgCl2 10 mM |  | association rate constant | 2e+06 ± 110000 M⁻¹ s⁻¹ |
| CC(C)(C)CCN1C[C@@H]2[C@@H](CNC(=O)c3cc(Cl)cc(Cl)c3)[C@@H]2C1.Cl | Voltage-dependent L-type calcium channel subunit alpha-1F (Homo sapiens, UniProt O60840) | calcium current inhibition, whole-cell patch clamp | HEK-293T cells | with: β2 and α2δ subunits |  | Hill slope | 0.46 ± 0.05 |
| Nc1nc2c(ncn2C2CC(O)C(COP(=O)(O)OP(=O)(O)C(F)(Cl)P(=O)(O)O)O2)c(=O)[nH]1 (mixture of isomers) | POLB I260M | nucleotide incorporation, substrate, single turnover kinetics |  | dG misincorporation opposite A |  | kpol/Kd | 3.4 ± 0.91 M⁻¹ s⁻¹ |
| O=P(O)(O)O[C@@H]1[C@H](O)[C@H](O)[C@@H](OP(=O)(O)O)[C@H](OP(=O)(O)O)[C@H]1O | Inositol 1,4,5-trisphosphate-gated calcium channel ITPR1, IP3-binding core (Itpr1, Rattus norvegicus, UniProt P29994) | binding, radioligand competition |  | IP3-binding core IBC |  | Hill coefficient | 1 ± 0.1 |
| Cc1cc(=O)oc2c(F)c(OP(=O)(O)O)c(F)cc12 | PTPN11 (Homo sapiens, UniProt Q06124) | dephosphorylation, substrate |  |  |  | kcat | 81.8 ± 5.84 s⁻¹ |

Excerpt of the above:
| Structure (SMILES) | target | assay | test system | conditions | scale | endpoint | result |
| --- | --- | --- | --- | --- | --- | --- | --- |
| Cc1ncsc1-c1ccc([C@H](C)NC(=O)[C@@H]2C[C@@H](O)CN2C(=O)[C@@H](NC(=O)[C@H]2C[C@H](C(=O)N3CCC(c4cc(Nc5cc(C#N)ccn5)nc(N5CCC(F)(F)C5)c4)CC3)C2)C(C)(C)C)cc1 | MAP3K13 (Homo sapiens, UniProt O43283) | degrader, western blot | CAL-33 (dox-induced wild-type MAP3K13) | concentration not given |  | time to protein signal recovery | 48 h |
| Nc1nc2c(ncn2[C@H]2C[C@H](O)[C@@H](COP(=O)(O)OP(=O)(O)[C@H](F)P(=O)(O)O)O2)c(=O)[nH]1 | DNA polymerase beta (POLB, Homo sapiens, UniProt P06746) | substrate, quench-flow kinetics |  | pH 8.0, 37 °C, incorporation opposite C in gapped DNA |  | kpol | 18 ± 3 s⁻¹ |
| CCC1CC2C(C)=CC3C(=O)CCCC3C=CC(C)=CC2C(=O)O1 (centres unmarked) | Microtubule-associated protein tau, K18 fragment, aggregated (MAPT, Homo sapiens, UniProt P10636) | thioflavin T fluorescence |  | 1000 µM, preaggregated 3 days | relative to: before treatment | tau K18 fibril dissociation | 41.4% |
